Published values gathered from unrelated publications.
± marks the error that the study gave.

CC(C)C[C@@H]1NC(=O)[C@H](CC(C)C)NC(=O)[C@H](CC(N)=O)NC(=O)[C@@H]2CCCN2C(=O)[C@H](CC(C)C)NC(=O)[C@H](CC(C)C)NC(=O)[C@H](CC(C)C)NC(=O)[C@@H](NC(=O)[C@H](CO)NC(=O)[C@H](CC(N)=O)NC(=O)[C@@H](N)C(C)C)CSSC[C@@H](C(=O)NCC(=O)N[C@@H](CC(=O)O)C(=O)N[C@@H](CC(=O)O)C(=O)N[C@@H](CCCCNC(=O)CCCC[C@@H]2SC[C@@H]3NC(=O)N[C@@H]32)C(=O)NCCCCCC(=O)NCCCCCC(=O)NCCCCCC(=O)NCCCCCC(=O)NCCCCCC(=O)N[C@@H](CCCCNC(=O)CCCCc2cn(CCCC[C@H](NC(=O)N[C@@H](CCC(=O)O)C(=O)O)C(=O)O)nn2)C(=O)NCC(N)=O)NC(=O)CNC1=O  EC50 (IFN-gamma-primed U-937; phagocytosis of PSMA-coated beads): 0.02 to 0.03 µM
CNC(=O)c1cc(Oc2ccc(NC(=O)c3cc(-c4cccc(OC(=O)CCC(=O)OC5OC6OC7(C)CCC8C(C)CCC(C5C)C68OO7)c4)ccn3)cc2)ccn1 (centres unmarked)  selectivity ratio (Huh-7 and LO2; cell viability, MTT; 72 h; relative to: IC50 LO2 over IC50 Huh-7): 5.5
COc1ccc(NC(=O)c2ccc(NC(=O)CN3C(=O)S/C(=C\c4ccccc4OC)C3=O)cc2)cc1  selectivity index (HT-29; MTT; relative to: IC50 Vero over IC50 HT-29): 6.65
CC[C@H](C)[C@H](NC(C)=O)C(=O)N[C@@H](CC(N)=O)C(=O)N[C@@H](Cc1c[nH]c2ccccc12)C(=O)N[C@@H](CCC(=O)O)C(=O)NCC(=O)N[C@H](C(=O)N[C@@H](C)C(=O)N[C@@H](Cc1c[nH]cn1)C(=O)N[C@@H](CCSC)C(=O)N[C@@H](C)C(=O)N[C@@H](CCCCN)C(=O)N[C@@H](CCCCN)C(=O)N[C@@H](CC(C)C)C(=O)N[C@@H](CC(C)C)C(N)=O)[C@@H](C)CC  Hill coefficient (human erythrocytes; hemolysis; no metal added): 2.2 ± 0.6
Cc1cc2c(C(=O)Cc3ccccc3)c(O)c(O)cc2c(O)c1-c1c(C)cc2c(C(=O)Cc3ccccc3)c(O)c(O)cc2c1O  EC50 (RS11846; apoptosis, annexin V/PI flow cytometry; 1-2 d): 4.9 µM
CC(=O)N[C@@H](CCCNC(=N)N)C(=O)N[C@@H](CCCNC(=N)N)C(=O)N[C@@H](CCCNC(=N)N)C(=O)N[C@@H](CCCNC(=N)N)C(=O)N[C@@H](CCCNC(=N)N)C(=O)N[C@@H](CCCNC(=N)N)C(=O)N[C@@H](CCCNC(=N)N)C(=O)N[C@@H](CCCNC(=N)N)C(=O)N[C@@H](CCCNC(=N)N)C(=O)N[C@@H](CCCNC(=N)N)C(=O)NCC(=O)N[C@@H](COP(=O)(O)O)C(=O)N1CCC[C@H]1C(=O)N[C@H](C(=O)N[C@@H](Cc1ccccc1)C(=O)O)[C@@H](C)O  γH2AX-positive cells (HeLa; DNA damage, immunostaining; 10 µM, 30 min, added: ionizing radiation 0 Gy): 0%
CC(C)C[C@H](NC(=O)[C@H](CCCNC(=N)N)NC(=O)CNC(=O)[C@@H](N)Cc1ccccc1)C(=O)O  viability (HaCaT; CCK-8; 100 µg/mL, 72 h, 0.4 % serum): 121 ± 3.06%
[NH-]c1c([I+]c2ccccc2)c(=O)oc2ccccc12  cell death (HaCaT; MTT; 100 µg/mL): > 60%
Cc1cc(CS(=O)(=O)c2ccccc2)cc(OCc2ccc(CN3CCC[C@@H]3CO)cc2)c1  Ca2+ transient amplitude (U2OS; NAADP-evoked Ca2+ release; 10 µM, 10 min pretreatment, added: NAADP 100 nM microinjected; relative to: NAADP alone): 14.1 ± 3%
CC1CCC2C(C)C(OC(=O)CCC(=O)N(CCCc3cn(-c4ccc([N+](=O)[O-])cc4)nn3)CCNc3ccnc4cc(Cl)ccc34)OC3OC4(C)CCC1C32OO4 (centres unmarked)  inhibition (RPMI-8226; cell growth or viability, resazurin; 10 µM, 48 h): 42.7%
CN1C(=O)CN=C(c2ccccc2)c2cc(C#CCCCC(=O)NO)ccc21  apoptotic cells (NB4; annexin V/PI flow cytometry; 2.5 µM, 48 h): ~80%
[Cl-].[Cl][Ru-4]123([n+]4ccccc4-c4cc(-c5ccccc5)cc([n+]41)-c1cccc[n+]12)[n+]1ccc(-c2ccccc2)c2ccc4c(-c5ccccc5)cc[n+]3c4c21  selectivity index (HEL 299 and A549; resazurin; relative to: IC50 HEL 299 over A549): 13.3
CC[C@H](C)[C@H](NC(C)=O)C(=O)N[C@@H](CC(N)=O)C(=O)N[C@@H](Cc1c[nH]c2ccccc12)C(=O)N[C@@H](Cc1c[nH]cn1)C(=O)NCC(=O)N[C@H](C(=O)N[C@@H](C)C(=O)N[C@@H](Cc1c[nH]cn1)C(=O)N[C@@H](CCSC)C(=O)N[C@@H](C)C(=O)N[C@@H](CCCCN)C(=O)N[C@@H](CCCCN)C(=O)N[C@@H](CC(C)C)C(=O)N[C@@H](CC(C)C)C(N)=O)[C@@H](C)CC  Hill coefficient (human erythrocytes; haemolysis; added: Zn(II) 300 µM): 1.9 ± 0.2
CCN(CC)CCOc1ccc(-c2nnn(Cc3ccc(OC)cc3)c2N)cc1  protein level (HEI-193; western blot, refers to: SOX10, MBP, p21, p27; concentration not given, 7 days): increased
CCC(=O)CCC[C@H](C)C[C@H](NC(=O)[C@@H]1C[C@H](C)CN1C(=O)/C=C/[C@@H](C)CC)C(=O)N[C@H](C(=O)NC(C)(C)C(=O)N[C@@H](CC(C)C)C(=O)N[C@@H](CC(C)C)C(=O)NC(C)(C)C(=O)NC(C)(C)C(=O)NCCC(=O)N[C@@H](C)CNC)[C@H](O)C(C)C  GI50 (MDA-MB-453; cell growth or viability, SRB; 48 h): 0.0054 µM
CCn1cc(-c2ccn3c(-c4ccc(-c5nnc(C)o5)cc4)cnc3c2)cn1  activity (mouse Ocy454; SIK substrate phosphorylation, immunoblotting, refers to: HDAC4/5, CRTC2; concentration not given): inactive
COCCOCCOCCOc1ccc(-n2cc(CCCN(CCNc3ccnc4cc(Cl)ccc34)C(=O)CCC(=O)OC3OC4OC5(C)CCC6C(C)CCC(C3C)C46OO5)nn2)cc1 (centres unmarked)  inhibition (CCRF-CEM; cell growth or viability, resazurin; 10 µM, 48 h): 36.9%
CCCCCCCCCCCCCC(=O)NCC(=O)N[C@@H](CCCNC(=N)N)C(=O)N[C@@H](Cc1c[nH]c2ccccc12)C(=O)N[C@@H](CCCCN)C(=O)N[C@H](C(=O)N[C@@H](Cc1ccccc1)C(=O)N[C@@H](CCCCN)C(=O)N[C@@H](CCCCN)C(=O)N[C@H](C(=O)N[C@@H](CCC(=O)O)C(=O)N[C@@H](CCCCN)C(=O)N[C@H](C(=O)NCC(=O)N[C@@H](CCC(N)=O)C(=O)N[C@@H](CC(N)=O)C(=O)N[C@H](C(=O)N[C@@H](CCCNC(=N)N)C(=O)N[C@@H](CC(=O)O)C(=O)NCC(=O)N[C@H](C(=O)N[C@H](C(=O)N[C@@H](CCCCN)C(=O)N[C@@H](C)C(=O)NCC(=O)N1CCC[C@H]1C(=O)N[C@@H](C)C(=O)N[C@H](C(=O)N[C@@H](C)C(=O)N[C@H](C(=O)N[C@H](C(=O)NCC(=O)N[C@@H](CCC(N)=O)C(=O)N[C@@H](C)C(=O)N[C@@H](C)C(=O)N[C@H](C(=O)N[C@H](C(N)=O)[C@@H](C)CC)[C@@H](C)O)C(C)C)C(C)C)C(C)C)C(C)C)[C@@H](C)CC)[C@@H](C)CC)C(C)C)[C@@H](C)CC)[C@@H](C)CC  procaspase activation (K562/MDR; Western blot, refers to: procaspase 3; 2 µM, 16 h): ~55%
CC/C=C\C/C=C\C/C=C\C/C=C\C/C=C\C/C=C\CCC(=O)Nc1ccn(C2OC(CO)C(O)C2(F)F)c(=O)n1 (centres unmarked)  CC50 (MDA-MB-435; NCI60 screen): 43.3 µM
C#CCCCNCCNc1ccnc2cc(Cl)ccc12  inhibition (RPMI-8226; cell growth or viability, resazurin; 10 µM, 48 h): 13%
COC(=O)C[C@](O)(CCCC(C)(C)OC(C)=O)C(=O)O[C@@H]1C(OC)=C[C@]23CCCN2CCc2cc4c(cc2[C@H]13)OCO4  apoptotic cells (CAPAN-1, KP-4, MIA PaCa-2; annexin V/PI flow cytometry; 1 µM, 72 h): > 90%
CC(=O)Oc1ccccc1/C=C/C(=O)Nc1nc(=O)n([C@@H]2O[C@H](C)[C@@H](OC(C)=O)[C@H]2OC(C)=O)cc1F  selectivity index (BXPC-3; cell viability, MTT; relative to: NHDF fibroblasts over BXPC-3): 3.66
CC(C)CC(O)(CC(C)C)c1cn(C(=O)N2CCCC2)nn1  protein level (mouse T-cells; SILAC proteomics, refers to: PAIP2; 1 nM, 6 h, unit not given; relative to: DMSO): 0.9 ± 0.2
CC12CCC3(CCC(=O)OCCNc4ccnc5cc(Cl)ccc45)C(C)(OOC3(C)O1)O2  inhibition (CCRF-CEM; cell growth or viability, resazurin; 10 µM, 48 h): 34.1%
CCCN1CCNC1=[S+][Ag-3]([O][N+](=O)[O-])([P+](c1ccccc1)(c1ccccc1)c1ccccc1)[P+](c1ccccc1)(c1ccccc1)c1ccccc1  cell killing (MG-63 osteosarcoma; MTT; 12.5 µM): ≤ 65%
CNC(=O)c1cc(Oc2ccc(NC(=O)c3cc(-c4ccccc4OC(=O)CCC(=O)OC4OC5OC6(C)CCC7C(C)CCC(C4C)C57OO6)ccn3)cc2)ccn1 (centres unmarked)  selectivity ratio (Huh-7 and LO2; cell viability, MTT; 72 h; relative to: IC50 LO2 over IC50 Huh-7): 9.8
CC12CCC3(CCC(=O)NCCNc4ccnc5cc(Cl)ccc45)C(C)(OOC3(C)O1)O2  inhibition (MOLT-4; cell growth or viability, resazurin; 10 µM, 48 h): 12.7%
NC1CCCCC1N.O=C1[O][Pt]([O]C(=O)c2ccc(P(c3ccccc3)c3ccccc3)cc2)([O]C(=O)c2ccc(P(c3ccccc3)c3ccccc3)cc2)[O]C1=O.[Cl][Au].[Cl][Au]  tube length disruption (HUVEC; tube formation; IC10, 16 h): 24.4%
CSCC[C@H](NC(=O)[C@H](CC(C)C)NC(=O)CNC(=O)[C@H](Cc1ccccc1)NC(=O)[C@H](Cc1ccccc1)NC(=O)[C@H](CCC(N)=O)NC(=O)[C@H](CCC(N)=O)NC(=O)[C@@H]1CCCN1C(=O)[C@H](CCCCN)NC(=O)[C@@H]1CCCN1C(=O)[C@@H](N)CCCNC(=N)N)C(N)=O  degranulated cells (rat mast cells; patch-clamp capacitance; concentration not given, 15 to 20 min): 66%
C=CC(=O)Oc1ccc(Cl)cc1C(=O)Nc1ccc([N+](=O)[O-])cc1Cl  cell death (C4-2B MDVR cells; ELISA; 0.5 and 1.0 µM): increased
F[P-](F)(F)(F)(F)F.OCP(CO)CO.OCP(CO)CO.OCP(CO)CO.OCP(CO)CO.[Cu+]  sensitivity ratio (SW480; MTT; 72 h; relative to: oxaliplatin): 3 fold
CC[C@H](C)[C@H](NC(=O)[C@H](CC(N)=O)NC(=O)[C@H](CCCCN)NC(=O)[C@H](Cc1ccccc1)NC(=O)[C@H](Cc1ccccc1)NC(=O)[C@H](Cc1c[nH]cn1)NC(=O)[C@@H](NC(=O)[C@@H](NC(=O)[C@@H]1CCCN1C(=O)[C@@H](N)CC(N)=O)C(C)C)C(C)C)C(=O)N[C@H](C(=O)N[C@H](C(=O)N[C@@H](C)C(=O)O)[C@@H](C)O)C(C)C  EC50 (T cell clone Ob.1E10; T cell proliferation, agonist, [3H]thymidine incorporation; 72 h, peptide-pulsed APC, added: EBV-transformed B cells DR2/DQ6 as APC): > 50 µM

A few entries again:
CC[C@H](C)[C@H](NC(=O)[C@H](CC(N)=O)NC(=O)[C@H](CCCCN)NC(=O)[C@H](Cc1ccccc1)NC(=O)[C@H](Cc1ccccc1)NC(=O)[C@H](Cc1c[nH]cn1)NC(=O)[C@@H](NC(=O)[C@@H](NC(=O)[C@@H]1CCCN1C(=O)[C@@H](N)CC(N)=O)C(C)C)C(C)C)C(=O)N[C@H](C(=O)N[C@H](C(=O)N[C@@H](C)C(=O)O)[C@@H](C)O)C(C)C  EC50 (T cell clone Ob.1E10; T cell proliferation, agonist, [3H]thymidine incorporation; 72 h, peptide-pulsed APC, added: EBV-transformed B cells DR2/DQ6 as APC): > 50 µM
CC12CCC3(CCC(=O)NCCNc4ccnc5cc(Cl)ccc45)C(C)(OOC3(C)O1)O2  inhibition (MOLT-4; cell growth or viability, resazurin; 10 µM, 48 h): 12.7%
CC1CCC2C(C)C(OC(=O)CCC(=O)N(CCCc3cn(-c4ccc([N+](=O)[O-])cc4)nn3)CCNc3ccnc4cc(Cl)ccc34)OC3OC4(C)CCC1C32OO4 (centres unmarked)  inhibition (RPMI-8226; cell growth or viability, resazurin; 10 µM, 48 h): 42.7%
CC(C)C[C@@H]1NC(=O)[C@H](CC(C)C)NC(=O)[C@H](CC(N)=O)NC(=O)[C@@H]2CCCN2C(=O)[C@H](CC(C)C)NC(=O)[C@H](CC(C)C)NC(=O)[C@H](CC(C)C)NC(=O)[C@@H](NC(=O)[C@H](CO)NC(=O)[C@H](CC(N)=O)NC(=O)[C@@H](N)C(C)C)CSSC[C@@H](C(=O)NCC(=O)N[C@@H](CC(=O)O)C(=O)N[C@@H](CC(=O)O)C(=O)N[C@@H](CCCCNC(=O)CCCC[C@@H]2SC[C@@H]3NC(=O)N[C@@H]32)C(=O)NCCCCCC(=O)NCCCCCC(=O)NCCCCCC(=O)NCCCCCC(=O)NCCCCCC(=O)N[C@@H](CCCCNC(=O)CCCCc2cn(CCCC[C@H](NC(=O)N[C@@H](CCC(=O)O)C(=O)O)C(=O)O)nn2)C(=O)NCC(N)=O)NC(=O)CNC1=O  EC50 (IFN-gamma-primed U-937; phagocytosis of PSMA-coated beads): 0.02 to 0.03 µM
